Assay results from different studies.
Protocols differ between the studies behind these lines.
Cell line: MCF-10A

The IC50 of O=C(O)[c-]1cccc1.O=C(Oc1ccc(-n2cccc2)cc1)[c-]1cccc1.[Fe+2] is reported as 219 µM (cell growth or viability, MTT).
The IC50 of C=CC12COC(=O)C(=C)C1C(O)C1C(=C)C(=O)OC1C2 (stereo not drawn) is reported as 1.6 µM (cell growth or viability, MTT; 72 h).
For CC(=O)N1CCCC[C@H]1C(=O)NC(C)(C)C(=O)N1CCCC[C@H]1C(=O)NC(C)(C)C(=O)NC(C)(C)C(=O)N[C@@H](CC(C)C)C(=O)N[C@@H](C)CC(=O)NCC(=O)NC(C)(C)C(=O)NC(C)(C)C(=O)N1CCCC[C@H]1C(=O)NC(C)(C)C(=O)NCC(=O)N[C@@H](CC(C)C)C(=O)NC(C)(C)C(=O)N[C@@H](CC(C)C)C[N+]1=C2CCCN2CCC1, the GI50 was 0.057 µM (cell growth or viability, SRB; 48 h).
The IC50 of C=CC[P](c1ccccc1)(c1ccccc1)[Pt]([S]c1nc2ccccc2s1)([S]c1nc2ccccc2s1)[P](CC=C)(c1ccccc1)c1ccccc1 is reported as 88.4 µM (cell growth or viability, MTT).
CC[C@@H](C(=O)[C@@H](C)[C@@H](O)[C@H](C)[C@@H]1O[C@@H]([C@@H](CC)C(=O)O)CC[C@@H]1C)[C@H]1O[C@]2(C=C[C@H](N)[C@]3(CC[C@@](C)([C@H]4CC[C@](O)(CC)[C@H](C)O4)O3)O2)[C@H](C)C[C@@H]1C gave an IC50 of over 12.5 µM (cell growth or viability, resazurin; 72 h).
CC[C@H](C)[C@H](NC(=O)[C@H](CCCNC(=N)N)NC(=O)[C@H](CCCNC(=N)N)NC(=O)[C@H](CCCNC(=N)N)NC(=O)[C@@H](NC(=O)[C@@H](NC(=O)[C@H](C)NC(=O)[C@H](CCCNC(=N)N)NC(=O)[C@H](CCCNC(=N)N)NC(=O)[C@H](CCCNC(=N)N)NC(=O)[C@@H]1CCCN1C(=O)[C@@H](N)CCCNC(=N)N)[C@@H](C)O)[C@@H](C)O)C(=O)N[C@H](C(=O)N[C@H](C(=O)NCC(=O)N[C@H](C(=O)N[C@@H](CCCNC(=N)N)C(=O)N[C@@H](CCCNC(=N)N)C(=O)N[C@@H](CCCNC(=N)N)C(=O)N[C@@H](CCCNC(=N)N)C(N)=O)[C@@H](C)O)[C@@H](C)O)[C@@H](C)O gave an IC50 of over 100 µM (cell viability, CellTiter-Blue; 24 h, serum-free medium).
CC(=O)N1CCCC[C@H]1C(=O)NC(C)(C)C(=O)N1CCCC[C@H]1C(=O)NC(C)(C)C(=O)NC(C)(C)C(=O)N[C@@H](CC(C)C)C(=O)NCCC(=O)N[C@H](C)C(=O)NC(C)(C)C(=O)NC(C)(C)C(=O)N1CCCC[C@H]1C(=O)NC(C)(C)C(=O)NCC(=O)N[C@@H](CC(C)C)C(=O)NC(C)(C)C(=O)N[C@@H](CC(C)C)C[N+]1=C2CCCN2CCC1 has a GI50 of 0.583 µM (cell growth or viability, SRB; 48 h).
C=CC[P](c1ccccc1)(c1ccccc1)[Pt]([Cl])([Cl])[P](CC=C)(c1ccccc1)c1ccccc1 gave an IC50 of 68.7 µM (cell growth or viability, MTT).
The GI50 of CC(=O)N1CCCC[C@H]1C(=O)NC(C)(C)C(=O)N1CCCC[C@H]1C(=O)NC(C)(C)C(=O)NC(C)(C)C(=O)N[C@@H](CC(C)C)C(=O)NC[C@H](C)C(=O)NCC(=O)NC(C)(C)C(=O)NC(C)(C)C(=O)N1CCCC[C@H]1C(=O)NC(C)(C)C(=O)NCC(=O)N[C@@H](CC(C)C)C(=O)NC(C)(C)C(=O)N[C@@H](CC(C)C)C[N+]1=C2CCCN2CCC1 is reported as 0.096 µM (cell growth or viability, SRB; 48 h).
N=C(N)NCCC[C@H](NC(=O)[C@H](CCCNC(=N)N)NC(=O)[C@@H]1CCCN1C(=O)[C@H](CCCNC(=N)N)NC(=O)[C@H](CCCNC(=N)N)NC(=O)[C@H](CCCNC(=N)N)NC(=O)[C@H](Cc1c[nH]c2ccccc12)NC(=O)[C@H](CCCNC(=N)N)NC(=O)[C@H](CCCNC(=N)N)NC(=O)[C@H](CCCNC(=N)N)NC(=O)[C@H](CCCNC(=N)N)NC(=O)[C@H](CCCNC(=N)N)NC(=O)[C@H](Cc1c[nH]c2ccccc12)NC(=O)[C@H](CCCNC(=N)N)NC(=O)[C@H](CCCNC(=N)N)NC(=O)[C@H](Cc1ccc(O)cc1)NC(=O)[C@H](CCCNC(=N)N)NC(=O)[C@H](CCCNC(=N)N)NC(=O)[C@H](CCCNC(=N)N)NC(=O)[C@@H](N)Cc1c[nH]c2ccccc12)C(N)=O — result for “zeta potential change”: “no effect” (2.5, 18.2, 40.0 µM, 30 min, 37 °C, outcome no effect).
For C=CC[P](c1ccccc1)(c1ccccc1)[Pt]([S]c1ccccn1)([S]c1ccccn1)[P](CC=C)(c1ccccc1)c1ccccc1, the IC50 was 38.4 µM (cell growth or viability, MTT).
For C#CCN[C@@H]1C=C[C@]2(O[C@H]([C@@H](CC)C(=O)[C@@H](C)[C@@H](O)[C@H](C)[C@@H]3O[C@@H]([C@@H](CC)C(=O)O)CC[C@@H]3C)[C@@H](C)C[C@H]2C)O[C@@]12CC[C@@](C)([C@H]1CC[C@](O)(CC)[C@H](C)O1)O2, the IC50 was 0.12 µM (cell growth or viability, resazurin; 72 h).

Some of these lines once more:
For CC(=O)N1CCCC[C@H]1C(=O)NC(C)(C)C(=O)N1CCCC[C@H]1C(=O)NC(C)(C)C(=O)NC(C)(C)C(=O)N[C@@H](CC(C)C)C(=O)N[C@@H](C)CC(=O)NCC(=O)NC(C)(C)C(=O)NC(C)(C)C(=O)N1CCCC[C@H]1C(=O)NC(C)(C)C(=O)NCC(=O)N[C@@H](CC(C)C)C(=O)NC(C)(C)C(=O)N[C@@H](CC(C)C)C[N+]1=C2CCCN2CCC1, the GI50 was 0.057 µM (cell growth or viability, SRB; 48 h).
